Measured values pooled from the literature.
Parts stem from different laboratories: compare values within a part only.

Block 1
Target: RNA binding protein fox-1 homolog 2, RRM domain, GST-SBP tag (RBFOX2, Homo sapiens, UniProt O43251-10, residues 100-194)
Technique: RNA Bind-n-Seq
Form: RNA
Sample: in vitro
Concentration: 365 nM
Setting: natural RNA segment, single round, ends assumed
Relative to: no-protein control
Reading: higher = stronger binding
Residues (chain): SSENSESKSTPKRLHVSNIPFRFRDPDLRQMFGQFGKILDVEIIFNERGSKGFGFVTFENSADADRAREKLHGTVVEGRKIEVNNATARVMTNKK
Strand	RBNS enrichment (R)
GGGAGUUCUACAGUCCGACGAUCUAGCUUUGGGCAGAGCCCUUGCUUCCUGGCUGCUUCAGGGCUCAGGGGCUCCCAGCCCUCCUUCCCAGGCUGAUGCUGGGUCCUCUCUCUCUUUGGGGCUUCUCCCUCCCUGGAAUUCUCGGGUGCCAA	0.449
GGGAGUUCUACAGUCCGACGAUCAUUCUUUGGCUGUGCCCUGAGGGUGCCUGCUCCUUUGUACGGUAACAGUCAAUUUUGAGGUUUCUUUCAGGAAGAGAAAGGGAUGGUUUUGAGGGGCUCAGAAAAUAGGAUGGAAUUCUCGGGUGCCAA	0.992
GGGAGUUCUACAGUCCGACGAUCUGUGUACCCACUCCUCACUGCCCCACCAGCCACCUCUUGGGCAUGCUCAGCCCUUCCUAGAAGAGUCAGGAAGGGAAAGCCAGAAGGGGCACGCCUGCCCAGCCUCGCAUUGGAAUUCUCGGGUGCCAA	1.29
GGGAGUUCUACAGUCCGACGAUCGAACAUCACAACACUGCUCUAGUUUCUUGGAGAAUCACAUUUCUUUACAGGUUAAAGACAAACAAGACCCCAGGGUUUUUAUCUAGAAAGUUAUUCAAGUGAAAGAAAGAUGGAAUUCUCGGGUGCCAA	0.467
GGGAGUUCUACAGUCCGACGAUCCUUGGUUCACCUUGCCUGUCGCUAGCAAGCAUCUGGUUCAGCGGAAAUGGGAUGUGAGAAUGAUGAAACCCGACAGAAGUAUCUCAGCCUGCAGUCAGUUAUUAUGUAUAUGGAAUUCUCGGGUGCCAA	2.11
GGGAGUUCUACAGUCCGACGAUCCGUCUGUGUGUAACUCACCCAGAGCAGAUCUGUGAGUCUCGAUGUGCUUUGUAAUCUCUGCUUGAGUGUUGCCCAUACUGGGCUGUGGCUUUGAAGGUCAUUUGCACAAGUGGAAUUCUCGGGUGCCAA	0.287
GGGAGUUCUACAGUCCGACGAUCGGUAGAGUCCUGUAAAUGAAUGCUCUGGGCUAGAUACAGCUUGGAGAACCUGCUGGCCUUGUUAGACAGCACUUGGGCCUUUGCCAGCAGCAAGAGGUGAAGCGAAGCCAUGGAAUUCUCGGGUGCCAA	3.12
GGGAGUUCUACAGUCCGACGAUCCUUUAUGAAAUAUCCUUACUUUAUCUGGGCUUAAUAAGUCACUGACAUCAGCACUGCCAACUCGGCUGCAAUUGUGGACCUUCCCUACCAAAGGGAGUGUUGAAACUCAAUGGAAUUCUCGGGUGCCAA	0.295
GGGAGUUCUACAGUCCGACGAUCGUGGAGAAAGAGAAGGCAAACGUUGGAACACUAGGAAAAGCUAGAAAUUCAGACAACACACAUGGAUCCCCUUAAAACAUGUAAAUGUGUCAGAACACGGUUGACCUGCCUGGAAUUCUCGGGUGCCAA	0.688

Block 2
Target: Transcription factor SOX-2, HMG box (Sox2, Mus musculus, UniProt P48432, residues 41-119)
UniProt P48432, sequence (41-119, looked up): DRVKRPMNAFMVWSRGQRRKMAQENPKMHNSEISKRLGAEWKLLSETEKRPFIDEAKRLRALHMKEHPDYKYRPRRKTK
Technique: Spec-seq
Form: double-stranded DNA, one strand shown
Sample: in vitro
Concentration: not given
Setting: whole probe, mean of replicates
Relative to: not given
Reading: lower = stronger binding
All sequences stand within: GAGTCGTCTCGTCAGCAC … CCGTAGAGCACTCAGGTC
Strand	relative binding energy
CATATAA	-0.552 ln ratio
CATTGAA	-1.37 ln ratio
TCTGGTT	0.849 ln ratio
TACTGTT	-0.998 ln ratio
CATTAGC	0.0857 ln ratio
CATGAGG	0.0622 ln ratio
CATTACG	-0.24 ln ratio
CATAAAA	-0.615 ln ratio
CATAGCA	-0.262 ln ratio
CATGATC	0.207 ln ratio
AGATGTT	0.396 ln ratio
ATCAGTT	0.416 ln ratio
CATTAGG	-0.191 ln ratio
CATCAAC	0.585 ln ratio
CATTAGT	-0.173 ln ratio
CATCACT	0.613 ln ratio

Block 3
Target: RING finger protein unkempt homolog, zinc fingers 1-6, GST-SBP tag (UNK, Homo sapiens, UniProt Q9C0B0, residues 30-357)
UniProt Q9C0B0, sequence (30-357, looked up): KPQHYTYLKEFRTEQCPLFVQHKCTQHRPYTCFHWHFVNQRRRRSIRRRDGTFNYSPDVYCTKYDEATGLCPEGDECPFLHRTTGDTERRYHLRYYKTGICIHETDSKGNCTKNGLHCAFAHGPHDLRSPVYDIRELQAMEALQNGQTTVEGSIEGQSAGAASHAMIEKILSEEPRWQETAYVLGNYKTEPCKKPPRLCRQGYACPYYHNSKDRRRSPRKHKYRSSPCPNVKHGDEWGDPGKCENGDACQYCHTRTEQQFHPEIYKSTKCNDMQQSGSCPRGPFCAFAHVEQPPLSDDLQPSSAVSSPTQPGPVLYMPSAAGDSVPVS
Technique: RNA Bind-n-Seq
Form: RNA
Sample: in vitro
Concentration: not given
Setting: RNA with constant flanks, human and mouse sites, ends assumed
Relative to: input RNA pool
Reading: higher = stronger binding
Strand	bound/input enrichment [ratio]
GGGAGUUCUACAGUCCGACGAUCAUCACUCUAAUUAAUUGUAAUCUGAAUAAAGUGUAACAAUUGUGUAGCCUUUUUGUAUAAAAUAGACAAAUAGAAAAUGGUCCAAUUAGUUUCCUUUUUAAUAUGCUUAAAAUAAGCAGGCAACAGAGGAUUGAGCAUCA	6.13
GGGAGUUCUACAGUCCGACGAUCCCUCAUGUUCAUUCAAAGGAUAAAAGCCAUAUUCCUUCUAGCCUAGAUAAUGUAAAUCACAAAAUUGUUCAUGAAUGUCAGGAACUUUCUUCACCUGUCAUUACUACAUCUCCUGCAUCACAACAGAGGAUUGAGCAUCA	3.8
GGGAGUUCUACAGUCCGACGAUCCCUCUAUUUAGAAGUGUAGGCAAUACCAUUGAGCCUGUCAUCCUGUUCCAGAAGAUGGGAGUGGGCAAGCUUGAGAUGUACGUGCUUAACCCAGUCAAAAGCAGCAAGGAAAUGCAGUAUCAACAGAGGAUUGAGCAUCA	0.448
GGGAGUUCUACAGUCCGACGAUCAGAAGCACACAGGCUGCCCCACAGGUUGUGCUGAAUGUCCCCGAGACACAAGUGACAUGUUUGGAAAAUGGACUCAGAGUAGCUUCUGAAAACUCUGGGCUCUCAACGUGCACAGUUGGGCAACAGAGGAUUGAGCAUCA	0.132
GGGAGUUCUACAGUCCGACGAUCGCGCGGGCGGUAGGAGGGAGGACCGACGCCAAACCCAGACCGCCGCCGUCGUGCUCCUGCCGCAGCCCGGAGCCGGCCGCUUCGGGGCCCUGGCCGCCGGCCUCCCAGCCGCGUUCUCCUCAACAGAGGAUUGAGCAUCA	1.32
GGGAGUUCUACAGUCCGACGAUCCAGUGUGCAAUUCUUUCUCCGGCAUUUAAAGUUAGAGAGUUCUCUGUCACCGAUGCAGUUCCUUUUCCAAUAUCUCUGGUCUGGAACCACGACUCGGAAGAAACGGAAGGUGUGCACGAGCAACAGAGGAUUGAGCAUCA	0.267
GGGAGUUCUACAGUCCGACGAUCGAUGGAAAAAUUUGUUCCUGGAGUUUGGACAUGCUUUCCCAUCCACAGGAUAGCAUGGAGUUGGUUCAUAAACAGUCAAAGGCAGUAGCUGUAACAUCUAUGUCUUUCCCUGUUGGAGACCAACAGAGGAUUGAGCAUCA	0.136
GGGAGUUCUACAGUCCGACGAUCAAGCUAUUAGCUCCAGAUUGUGAAAUUGUGCAAGAGCUGGGAAAACUCUAUCCAUUGGAGAUUGUGUUUGGAAUGAAUGGAAGAAUAUGGGUCAAAGCUAAGACCAUUCAGCAGACGUUACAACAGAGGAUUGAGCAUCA	0.178
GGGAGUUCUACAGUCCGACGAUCUUCACCGCUCCCCACAGCUUUGCACCCCUUUCCUCCCCAUACACACACAAACCAUUUUAUUUUUUGGGCCAUUACCCCAUACCCCUUAUUGCUGCCAAAACCACAUGGGCUGGGGGCCAGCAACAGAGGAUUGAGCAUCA	1.93
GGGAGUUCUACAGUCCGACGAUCCCAAAGCUGGCUGCACUUCUCCGGGUAUUUAGUACUGUGGUGAGGAGCAUUGGGGAACGCUUCAGCCCAAUUCGGGGUCCUCCAAUUACUGAGGCAUAUGUAACAGAUGUUCUGUACAGACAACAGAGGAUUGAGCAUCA	0.301
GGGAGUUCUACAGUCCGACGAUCCCAAAGGAUCCGAUUUGCAUAGCGGAGCUCCAGCUGUUGUGGGAAGAGAGGACCAGCCGGCAACUUUUAUCCAGCUCUAAACUUUAUUUCCUCCCAGAAGACACUCCCCAGGGCAGAAAUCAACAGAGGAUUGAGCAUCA	0.403

Block 4
Target: Centromere-binding protein 1, full length, N-terminal tag (CBF1, Saccharomyces cerevisiae, UniProt P17106, residues 1-351)
UniProt P17106, sequence (whole entry, looked up): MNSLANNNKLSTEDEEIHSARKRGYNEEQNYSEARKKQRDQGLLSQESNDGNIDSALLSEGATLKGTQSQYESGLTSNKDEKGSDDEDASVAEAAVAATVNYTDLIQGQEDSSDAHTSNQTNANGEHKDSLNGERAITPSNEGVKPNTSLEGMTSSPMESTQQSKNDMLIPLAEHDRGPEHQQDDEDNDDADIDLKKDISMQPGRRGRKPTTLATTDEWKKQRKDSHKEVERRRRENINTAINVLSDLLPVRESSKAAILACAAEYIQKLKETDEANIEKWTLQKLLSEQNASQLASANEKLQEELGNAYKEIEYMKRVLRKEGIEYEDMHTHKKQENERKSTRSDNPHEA
Technique: protein-binding microarray
Form: double-stranded DNA, one strand shown
Sample: in vitro
Concentration: 0.8 µM
Setting: whole 60-bp probe, no competitor
Reading: higher = stronger binding
Strand	fluorescence intensity [a.u.]
CTAAAGAAATATACCCACGCGTTCTTTACCCGGTTCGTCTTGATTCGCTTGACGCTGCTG	540
CTAAGAGACTACGCAGACGTGACGGTCATCTAGTTCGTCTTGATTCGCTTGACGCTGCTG	563
GAAGAGTTCTTCAAAAATCTGATGTAAAATTTATAGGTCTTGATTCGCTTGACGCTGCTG	503
GAATTGTATGCTGGGTAGCTGATGTGCACCTAATAGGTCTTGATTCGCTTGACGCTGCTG	506
CTAAATAATAACAATCAACTGAACACAACATTATTCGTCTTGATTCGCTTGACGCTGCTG	510
CTAAGTCTACCCACGGTGATGATTTTTCTGCCATTCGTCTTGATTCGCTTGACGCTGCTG	509
GAACCGATTGATAGTCATGATCAGATTCTTTATTAGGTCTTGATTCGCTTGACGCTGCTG	596
GAAGTATGTATGCATCAGCAGATTGACCGGTAATAGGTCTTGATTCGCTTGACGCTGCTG	526
GAAACTTTTTCGTTTAACGTGACGCATGGTGCGTAGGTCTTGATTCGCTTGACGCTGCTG	1300
GAACAGTACAAGATCCATGTGCATTACAACACATAGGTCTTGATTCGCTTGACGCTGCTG	593
GAACTAGTATGTTGCCACCTGCAGAAATAAATATAGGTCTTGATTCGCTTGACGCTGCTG	585
GAATAGAAGTAATGGTATGTCACGTATAAATAATAGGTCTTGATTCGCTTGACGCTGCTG	808
GAAAACCTTGGCACTCACACGTGGGACTAGCACTAGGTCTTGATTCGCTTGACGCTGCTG	1570
GAACAGATTGGGAACCGCATGACGTGGCGGCCTTAGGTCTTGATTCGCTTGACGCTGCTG	536
CTACTTCAATAAAGTCACGCGTAGTTAAAATATTTCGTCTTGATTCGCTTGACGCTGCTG	2040
CCTAACTACTATAATCACGAGCGATAGCTTCGTACAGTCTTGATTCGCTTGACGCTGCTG	826
TGTACGAAGCTATAAAACATGATTATAGTAGTTAGGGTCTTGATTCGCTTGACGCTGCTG	510
GAACGTGATAACAATCACACTGTACGGCTGATCTAGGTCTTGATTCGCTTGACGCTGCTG	650
CTATGATAAAGGAACCATGTGATCTTACGTTGATTCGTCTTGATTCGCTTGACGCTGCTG	3090
CTAACCTTTTCTTTTCACCTGCTCTGGCTATAATTCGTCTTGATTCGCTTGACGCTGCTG	580
CTAACACTAAACGGTTGTCAGGAGAAAAATTGATTCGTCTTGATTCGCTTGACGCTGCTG	514
CTAGAATGAATAGGTCATGAGAAAATGCATATTTTCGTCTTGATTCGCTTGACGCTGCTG	544
CTACTTCCTCTTCTGCACGTTTCTCTAGTAATGTTCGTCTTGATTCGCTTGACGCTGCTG	665
GAATGCATCACTATTCAGGAGATGTATAGGCCATAGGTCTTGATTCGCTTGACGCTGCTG	550
CTAATAGGAATTTAGACGCTGATGGATGTTATCTTCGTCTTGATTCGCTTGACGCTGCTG	511

Repeated from above (block 2):
Strand	relative binding energy
CATCAAC	0.585 ln ratio
CATGATC	0.207 ln ratio
CATTAGT	-0.173 ln ratio
CATTAGC	0.0857 ln ratio
ATCAGTT	0.416 ln ratio
CATAAAA	-0.615 ln ratio
TCTGGTT	0.849 ln ratio
